Published values of several laboratories.
Lines come from different studies, so protocols differ. ± gives the spread as reported.

SMILES = N=C(N)NCCC[C@H](NC(=O)[C@H](CCCCN)NC(=O)[C@H](CCC(N)=O)NC(=O)CCOCCOCCOCCNC(=O)CN1CCN(CC(=O)O)CCN(CC(=O)O)CCN(CC(=O)O)CC1)C(=O)N[C@@H](CCCCN)C(=O)N[C@@H](CCCNC(=N)N)C(=O)N[C@@H](CCCCN)C(=O)N[C@@H](CCCCN)C(=O)N[C@@H](CO)C(=O)N[C@@H](CCCNC(=N)N)C(=O)N[C@@H](Cc1ccc(O)cc1)C(=O)N[C@@H](CCCCN)C(=O)N[C@@H](CO)C(=O)O [copper-64 labelled]; test system = C57BL/6 mice, B16-F10 tumour, lung; conditions = intravenous, 60 min; measurement = tissue uptake; value = 1.73 ± 0.27 %ID/g
SMILES = N=C(N)NCCC[C@@H]1NC(=O)[C@H](CCCCNC(=O)CC[C@H](NC(=O)[C@H](CCCCNC(=O)c2ccc(NN)nc2)NC(=O)c2ccc(NN)nc2)C(=O)NCCCC[C@@H]2NC(=O)[C@@H](Cc3ccccc3)NC(=O)[C@H](CC(=O)O)NC(=O)CNC(=O)[C@H](CCCNC(=N)N)NC2=O)NC(=O)[C@@H](Cc2ccccc2)NC(=O)[C@H](CC(=O)O)NC(=O)CNC1=O [technetium-99m labelled]; test system = female athymic nude mice; conditions = intravenous, 1 h, U-87 MG glioma xenograft; scale = relative to: tumour over lung; measurement = tissue ratio; value = 1.4 ± 0.28
SMILES = N=C(N)NCCC[C@@H]1NC(=O)[C@H](CCCCNC(=O)CCOCCOCCOCCOCCNC(=O)CC[C@H](NC(=O)CCOCCOCCOCCOCCNC(=O)CC[C@H](NC(=O)CN2CCN(CC(=O)O)CCN(CC(=O)O)CCN(CC(=O)O)CC2)C(=O)NCCOCCOCCOCCOCCC(=O)N[C@@H](CCC(=O)NCCOCCOCCOCCOCCC(=O)NCCCC[C@@H]2NC(=O)[C@@H](Cc3ccccc3)NC(=O)[C@H](CC(=O)O)NC(=O)CNC(=O)[C@H](CCCNC(=N)N)NC2=O)C(=O)NCCOCCOCCOCCOCCC(=O)NCCCC[C@@H]2NC(=O)[C@@H](Cc3ccccc3)NC(=O)[C@H](CC(=O)O)NC(=O)CNC(=O)[C@H](CCCNC(=N)N)NC2=O)C(=O)NCCOCCOCCOCCOCCC(=O)NCCCC[C@@H]2NC(=O)[C@@H](Cc3ccccc3)NC(=O)[C@H](CC(=O)O)NC(=O)CNC(=O)[C@H](CCCNC(=N)N)NC2=O)NC(=O)[C@@H](Cc2ccccc2)NC(=O)[C@H](CC(=O)O)NC(=O)CNC1=O [indium-111 labelled]; test system = athymic nude mice, female, U-87 MG glioma xenograft, U-87 MG tumour; conditions = intravenous, 3 µCi, 4 h; measurement = tissue uptake; value = 8.48 ± 2.75 %ID/g
SMILES = N=C(N)NCCC[C@@H]1NC(=O)[C@H](CCCCNC(=O)CCOCCOCCOCCOCCNC(=O)CC[C@H](NC(=O)CCOCCOCCOCCOCCNC(=O)[C@H](CCCCNC(=O)c2ccc(NN)nc2)NC(=O)c2ccc(NN)nc2)C(=O)NCCOCCOCCOCCOCCC(=O)NCCCC[C@@H]2NC(=O)[C@@H](Cc3ccccc3)NC(=O)[C@H](CC(=O)O)NC(=O)CNC(=O)[C@H](CCCNC(=N)N)NC2=O)NC(=O)[C@@H](Cc2ccccc2)NC(=O)[C@H](CC(=O)O)NC(=O)CNC1=O [technetium-99m labelled]; test system = female athymic nude mice; conditions = intravenous, 1 h, U-87 MG glioma xenograft; scale = relative to: tumour over liver; measurement = tissue ratio; value = 2.98 ± 0.18
SMILES = N=C(N)NCCC[C@@H]1NC(=O)[C@H](CCCCNC(=O)CC[C@H](NC(=O)CCOCCOCCOCCOCCNC(=O)CN2CCN(CC(=O)O)CCN(CC(=O)O)CCN(CC(=O)O)CC2)C(=O)NCCCC[C@@H]2NC(=O)[C@@H](Cc3ccccc3)NC(=O)[C@H](CC(=O)O)NC(=O)CNC(=O)[C@H](CCCNC(=N)N)NC2=O)NC(=O)[C@@H](Cc2ccccc2)NC(=O)[C@H](CC(=O)O)NC(=O)CNC1=O [indium-111 labelled]; test system = female athymic nude mice, eyes; conditions = intravenous, 3 µCi, 72 h, U-87 MG glioma xenograft; measurement = tissue uptake; value = 0.2 ± 0.04 %ID/g
SMILES = CSCC[C@H](NC(=O)[C@H](CC(C)C)NC(=O)[C@H](Cc1c[nH]cn1)NC(=O)CNC(=O)[C@@H](NC(=O)[C@H](C)NC(=O)[C@H](Cc1c[nH]c2ccccc12)NC(=O)[C@H](CCC(N)=O)NC(=O)CNC(=O)[C@H](CO)NC(=O)CNC(=O)CCCCCCCNC(=O)CCC(=O)Nc1ccc(CNC23CNCCNCC(N)(CNCCNC2)CNCCNC3)cc1)C(C)C)C(N)=O [copper-64 labelled]; test system = female SCID mice, PC-3 xenograft, lung; conditions = intravenous, 0.6 MBq, 4 h; measurement = tissue uptake; value = 0.348 ± 0.017 %ID/g
SMILES = N=C(N)NCCC[C@@H]1NC(=O)[C@H](CCCCNC(=O)CCOCCOCCOCCOCCNC(=O)CC[C@H](NC(=O)[C@H](CCCCNC(=O)c2ccc(NN)nc2)NC(=O)c2ccc(NN)nc2)C(=O)NCCOCCOCCOCCOCCC(=O)NCCCC[C@@H]2NC(=O)[C@@H](Cc3ccccc3)NC(=O)[C@H](CC(=O)O)NC(=O)CNC(=O)[C@H](CCCNC(=N)N)NC2=O)NC(=O)[C@@H](Cc2ccccc2)NC(=O)[C@H](CC(=O)O)NC(=O)CNC1=O [technetium-99m labelled]; test system = female athymic nude mice; conditions = intravenous, 1 h, U-87 MG glioma xenograft; scale = relative to: tumour over lung; measurement = tissue ratio; value = 3.6 ± 0.13
SMILES = N=C(N)NCCC[C@@H]1NC(=O)[C@H](CCCCNC(=O)CNC(=O)CNC(=O)CNC(=O)CC[C@H](NC(=O)CCOCCOCCOCCOCCNC(=O)CC[C@H](NC(=O)CN2CCN(CC(=O)O)CCN(CC(=O)O)CCN(CC(=O)O)CC2)C(=O)NCCOCCOCCOCCOCCC(=O)N[C@@H](CCC(=O)NCC(=O)NCC(=O)NCC(=O)NCCCC[C@@H]2NC(=O)[C@@H](Cc3ccccc3)NC(=O)[C@H](CC(=O)O)NC(=O)CNC(=O)[C@H](CCCNC(=N)N)NC2=O)C(=O)NCC(=O)NCC(=O)NCC(=O)NCCCC[C@@H]2NC(=O)[C@@H](Cc3ccccc3)NC(=O)[C@H](CC(=O)O)NC(=O)CNC(=O)[C@H](CCCNC(=N)N)NC2=O)C(=O)NCC(=O)NCC(=O)NCC(=O)NCCCC[C@@H]2NC(=O)[C@@H](Cc3ccccc3)NC(=O)[C@H](CC(=O)O)NC(=O)CNC(=O)[C@H](CCCNC(=N)N)NC2=O)NC(=O)[C@@H](Cc2ccccc2)NC(=O)[C@H](CC(=O)O)NC(=O)CNC1=O [indium-111 labelled]; test system = female athymic nude mice, muscle; conditions = intravenous, 3 µCi, 4 h, U-87 MG glioma xenograft; measurement = tissue uptake; value = 0.52 ± 0.07 %ID/g
SMILES = CC(C)C[C@H](NC(=O)[C@H](Cc1ccc(O)cc1)NC(=O)[C@@H](CCCNC(=N)N)NC(=O)[C@@H](CO)NC(=O)[C@H](Cc1ccccc1)NC(=O)[C@H](CC1CCCCC1)NC(=O)[C@H](CC(=O)O)NC(=O)CCC(C(=O)O)N1CCCN2CCN(CCCN(CC(=O)O)CC2)CC1)C(=O)N[C@@H](Cc1c[nH]c2ccccc12)C(=O)N[C@@H](CO)C(=O)O (stereo partly shown) [copper-64 labelled]; test system = female NMRI nude mice, brain; conditions = 22 h p.i.; measurement = tissue uptake; value = 0.1 ± 0.1 %ID/g
SMILES = CSCC[C@H](NC(=O)[C@H](CC(C)C)NC(=O)[C@H](Cc1c[nH]cn1)NC(=O)CNC(=O)[C@@H](NC(=O)[C@H](C)NC(=O)[C@H](Cc1c[nH]c2ccccc12)NC(=O)[C@H](CCC(N)=O)NC(=O)CCCCCCCNC(=O)CCC(=O)Nc1ccc(CNC23CNCCNCC(N)(CNCCNC2)CNCCNC3)cc1)C(C)C)C(N)=O [copper-64 labelled]; test system = female SCID mice, PC-3 xenograft, kidney; conditions = intravenous, 0.6 MBq, 4 h; measurement = tissue uptake; value = 8.3 ± 0.558 %ID/g

Repeated from above:
SMILES = CSCC[C@H](NC(=O)[C@H](CC(C)C)NC(=O)[C@H](Cc1c[nH]cn1)NC(=O)CNC(=O)[C@@H](NC(=O)[C@H](C)NC(=O)[C@H](Cc1c[nH]c2ccccc12)NC(=O)[C@H](CCC(N)=O)NC(=O)CCCCCCCNC(=O)CCC(=O)Nc1ccc(CNC23CNCCNCC(N)(CNCCNC2)CNCCNC3)cc1)C(C)C)C(N)=O [copper-64 labelled]; test system = female SCID mice, PC-3 xenograft, kidney; conditions = intravenous, 0.6 MBq, 4 h; measurement = tissue uptake; value = 8.3 ± 0.558 %ID/g
